Assay results pooled from the literature.
A part holds a random share of what one study measured.
Chain of UniProt Q16644 (whole entry, looked up): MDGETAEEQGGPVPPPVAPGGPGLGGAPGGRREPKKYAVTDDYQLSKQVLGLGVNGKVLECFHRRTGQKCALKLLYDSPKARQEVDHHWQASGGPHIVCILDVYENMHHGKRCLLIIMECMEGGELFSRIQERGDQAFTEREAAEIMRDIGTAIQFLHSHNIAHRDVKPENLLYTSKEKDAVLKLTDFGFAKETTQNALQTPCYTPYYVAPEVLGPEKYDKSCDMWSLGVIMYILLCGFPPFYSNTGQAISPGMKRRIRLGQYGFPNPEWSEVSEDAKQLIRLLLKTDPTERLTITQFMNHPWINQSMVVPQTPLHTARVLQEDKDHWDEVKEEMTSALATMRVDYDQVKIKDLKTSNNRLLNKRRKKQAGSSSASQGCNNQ
Chain of UniProt Q9H2X6 (whole entry, looked up): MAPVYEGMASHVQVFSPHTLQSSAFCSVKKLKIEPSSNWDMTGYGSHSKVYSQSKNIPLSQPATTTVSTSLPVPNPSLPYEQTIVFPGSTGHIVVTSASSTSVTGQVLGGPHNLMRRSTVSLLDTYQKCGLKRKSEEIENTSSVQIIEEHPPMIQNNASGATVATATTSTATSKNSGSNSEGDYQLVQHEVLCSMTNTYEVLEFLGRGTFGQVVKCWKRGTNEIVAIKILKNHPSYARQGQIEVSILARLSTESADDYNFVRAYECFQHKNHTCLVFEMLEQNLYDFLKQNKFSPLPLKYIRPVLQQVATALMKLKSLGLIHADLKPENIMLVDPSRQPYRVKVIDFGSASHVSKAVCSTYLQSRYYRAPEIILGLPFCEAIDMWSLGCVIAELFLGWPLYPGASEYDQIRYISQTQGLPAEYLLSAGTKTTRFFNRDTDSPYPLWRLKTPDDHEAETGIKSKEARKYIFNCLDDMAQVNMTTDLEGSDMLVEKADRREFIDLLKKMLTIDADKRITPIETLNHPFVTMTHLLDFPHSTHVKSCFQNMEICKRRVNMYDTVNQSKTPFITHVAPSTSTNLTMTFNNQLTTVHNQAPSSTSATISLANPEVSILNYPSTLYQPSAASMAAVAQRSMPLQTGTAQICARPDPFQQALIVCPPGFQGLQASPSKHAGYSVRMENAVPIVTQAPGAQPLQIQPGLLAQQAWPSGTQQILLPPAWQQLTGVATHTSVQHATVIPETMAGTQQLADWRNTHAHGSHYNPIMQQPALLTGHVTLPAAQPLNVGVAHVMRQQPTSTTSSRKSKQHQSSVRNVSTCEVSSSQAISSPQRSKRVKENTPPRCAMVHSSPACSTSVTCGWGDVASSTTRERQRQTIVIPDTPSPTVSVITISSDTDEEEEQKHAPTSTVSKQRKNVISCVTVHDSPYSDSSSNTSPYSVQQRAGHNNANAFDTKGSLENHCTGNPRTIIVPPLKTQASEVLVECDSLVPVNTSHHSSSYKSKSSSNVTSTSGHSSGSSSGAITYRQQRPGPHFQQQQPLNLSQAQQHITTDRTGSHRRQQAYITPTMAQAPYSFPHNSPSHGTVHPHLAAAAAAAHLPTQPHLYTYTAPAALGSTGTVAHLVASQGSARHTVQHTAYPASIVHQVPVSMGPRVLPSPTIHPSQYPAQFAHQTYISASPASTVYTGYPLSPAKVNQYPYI
Chain of UniProt Q9BWU1 (whole entry, looked up): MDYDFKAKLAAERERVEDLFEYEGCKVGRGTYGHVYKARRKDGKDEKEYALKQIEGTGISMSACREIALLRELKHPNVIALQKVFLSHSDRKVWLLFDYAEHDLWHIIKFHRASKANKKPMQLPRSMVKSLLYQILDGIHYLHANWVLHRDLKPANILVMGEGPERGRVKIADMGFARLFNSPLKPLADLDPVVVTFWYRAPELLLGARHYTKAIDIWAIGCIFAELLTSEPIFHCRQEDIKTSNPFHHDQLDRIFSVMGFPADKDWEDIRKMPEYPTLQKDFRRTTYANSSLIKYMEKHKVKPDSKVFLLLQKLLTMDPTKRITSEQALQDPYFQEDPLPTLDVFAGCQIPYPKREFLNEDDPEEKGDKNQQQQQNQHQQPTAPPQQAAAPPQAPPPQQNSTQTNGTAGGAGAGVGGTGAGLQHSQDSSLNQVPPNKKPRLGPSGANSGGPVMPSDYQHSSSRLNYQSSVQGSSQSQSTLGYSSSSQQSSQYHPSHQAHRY
Chain of UniProt P00519 (whole entry, looked up): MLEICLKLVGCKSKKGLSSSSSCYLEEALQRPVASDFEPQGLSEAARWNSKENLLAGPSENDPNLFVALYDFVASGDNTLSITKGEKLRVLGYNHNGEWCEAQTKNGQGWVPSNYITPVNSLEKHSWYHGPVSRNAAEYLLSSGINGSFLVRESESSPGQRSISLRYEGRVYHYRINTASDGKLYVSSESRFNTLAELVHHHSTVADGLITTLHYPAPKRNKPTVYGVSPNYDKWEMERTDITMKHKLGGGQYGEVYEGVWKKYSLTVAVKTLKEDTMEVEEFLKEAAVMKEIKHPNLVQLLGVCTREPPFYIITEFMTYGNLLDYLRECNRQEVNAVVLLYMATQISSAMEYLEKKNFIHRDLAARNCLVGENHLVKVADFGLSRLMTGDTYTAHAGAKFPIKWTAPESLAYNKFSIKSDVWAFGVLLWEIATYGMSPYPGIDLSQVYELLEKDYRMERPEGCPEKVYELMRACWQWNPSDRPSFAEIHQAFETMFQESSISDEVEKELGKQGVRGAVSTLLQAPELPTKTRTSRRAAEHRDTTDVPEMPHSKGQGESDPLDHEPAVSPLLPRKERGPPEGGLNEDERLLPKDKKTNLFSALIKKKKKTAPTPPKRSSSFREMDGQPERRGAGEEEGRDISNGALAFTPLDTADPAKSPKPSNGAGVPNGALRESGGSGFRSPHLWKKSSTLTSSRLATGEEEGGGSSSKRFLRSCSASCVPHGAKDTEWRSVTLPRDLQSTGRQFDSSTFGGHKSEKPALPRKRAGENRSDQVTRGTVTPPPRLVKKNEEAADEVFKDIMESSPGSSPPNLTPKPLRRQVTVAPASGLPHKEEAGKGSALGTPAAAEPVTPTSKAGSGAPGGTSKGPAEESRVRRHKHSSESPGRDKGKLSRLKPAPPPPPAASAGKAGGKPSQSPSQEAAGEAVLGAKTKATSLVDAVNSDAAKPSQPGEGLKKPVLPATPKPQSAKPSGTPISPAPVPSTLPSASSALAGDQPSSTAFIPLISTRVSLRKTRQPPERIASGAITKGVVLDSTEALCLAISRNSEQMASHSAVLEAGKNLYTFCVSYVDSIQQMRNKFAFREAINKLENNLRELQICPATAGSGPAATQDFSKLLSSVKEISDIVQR
Chain of UniProt Q00534 (whole entry, looked up): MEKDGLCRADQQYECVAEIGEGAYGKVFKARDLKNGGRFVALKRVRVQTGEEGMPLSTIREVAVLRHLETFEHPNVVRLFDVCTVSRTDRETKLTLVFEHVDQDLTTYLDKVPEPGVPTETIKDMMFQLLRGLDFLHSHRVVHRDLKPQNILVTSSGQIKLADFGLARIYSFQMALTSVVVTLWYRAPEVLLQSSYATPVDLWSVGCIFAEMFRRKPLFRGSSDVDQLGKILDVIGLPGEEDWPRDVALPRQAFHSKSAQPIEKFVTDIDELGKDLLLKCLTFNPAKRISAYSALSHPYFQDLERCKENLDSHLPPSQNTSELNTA
Chain of UniProt O43283 (whole entry, looked up): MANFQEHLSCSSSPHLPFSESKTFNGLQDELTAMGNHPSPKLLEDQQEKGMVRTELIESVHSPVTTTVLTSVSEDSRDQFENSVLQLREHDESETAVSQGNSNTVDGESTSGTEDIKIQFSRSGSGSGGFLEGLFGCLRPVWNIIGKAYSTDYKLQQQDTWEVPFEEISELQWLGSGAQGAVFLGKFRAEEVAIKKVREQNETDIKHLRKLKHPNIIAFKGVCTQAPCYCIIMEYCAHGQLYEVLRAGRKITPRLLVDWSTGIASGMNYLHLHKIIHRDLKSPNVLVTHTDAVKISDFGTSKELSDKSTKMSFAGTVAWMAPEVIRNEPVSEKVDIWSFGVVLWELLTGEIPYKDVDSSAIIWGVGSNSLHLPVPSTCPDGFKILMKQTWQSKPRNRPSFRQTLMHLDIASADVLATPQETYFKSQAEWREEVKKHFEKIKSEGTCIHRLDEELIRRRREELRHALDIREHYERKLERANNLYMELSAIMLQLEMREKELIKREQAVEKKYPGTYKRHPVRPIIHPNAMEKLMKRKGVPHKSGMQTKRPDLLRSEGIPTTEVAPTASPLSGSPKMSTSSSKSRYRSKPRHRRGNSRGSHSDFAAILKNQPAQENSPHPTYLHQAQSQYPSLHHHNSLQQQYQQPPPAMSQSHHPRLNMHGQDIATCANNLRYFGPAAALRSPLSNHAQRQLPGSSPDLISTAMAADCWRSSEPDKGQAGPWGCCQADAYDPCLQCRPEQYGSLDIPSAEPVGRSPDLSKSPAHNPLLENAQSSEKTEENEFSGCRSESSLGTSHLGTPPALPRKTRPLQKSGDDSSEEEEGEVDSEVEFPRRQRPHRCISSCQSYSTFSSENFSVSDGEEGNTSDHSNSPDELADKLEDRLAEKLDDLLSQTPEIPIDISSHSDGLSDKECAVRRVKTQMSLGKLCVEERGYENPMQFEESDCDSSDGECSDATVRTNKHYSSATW
Chain of UniProt Q9UEE5 (whole entry, looked up): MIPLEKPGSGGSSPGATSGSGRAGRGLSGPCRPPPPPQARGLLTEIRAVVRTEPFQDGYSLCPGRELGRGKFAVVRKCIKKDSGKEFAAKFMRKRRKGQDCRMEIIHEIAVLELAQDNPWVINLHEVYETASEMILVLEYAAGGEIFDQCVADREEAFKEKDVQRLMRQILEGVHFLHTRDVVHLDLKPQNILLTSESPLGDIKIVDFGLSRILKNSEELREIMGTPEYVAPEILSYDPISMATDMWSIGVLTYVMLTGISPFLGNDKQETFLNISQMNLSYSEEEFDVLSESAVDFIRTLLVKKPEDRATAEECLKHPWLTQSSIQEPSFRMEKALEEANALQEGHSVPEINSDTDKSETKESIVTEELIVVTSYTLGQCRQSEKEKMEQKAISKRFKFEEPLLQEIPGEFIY

Set 1
SMILES: O=C(N[C@H]1CCCCC/C=C\C2C[C@@]2(C(=O)O)NC(=O)[C@@H]2C[C@@H](Oc3ccncc3)CN2C1=O)OC1CCCC1 (stereo partly drawn)
Concentration: 1 µM
For Non-receptor tyrosine-protein kinase TYK2, JH2 (TYK2, Homo sapiens, UniProt P29597); binding, competition with immobilised ligand: remaining binding read 99%.
MAP3K13 (Homo sapiens, UniProt O43283); binding, competition with immobilised ligand — remaining binding: 100%.
KIT (Homo sapiens, UniProt P10721, L576P); binding, competition with immobilised ligand — remaining binding: 91%.
For ACVR2A (Homo sapiens, UniProt P27037); binding, competition with immobilised ligand: remaining binding read 96%.
For EPHA7 (Homo sapiens, UniProt Q15375); cell-free assay, competition with immobilised ligand: remaining binding read 100%.
It gave 91% for remaining binding (CDK19 (Homo sapiens, UniProt Q9BWU1); competition binding).

Set 2
SMILES: O=C1NC(=O)/C(=C/c2ccc3nccnc3c2)S1
Effect on: enzyme activity
Mode: inhibitor
Concentration: 0.5 µM
Relative to: control
It gave 101% for remaining activity (EPHB4 (Homo sapiens, UniProt P54760)).
For Cyclin-dependent kinase 4, with cyclin D3 (CDK4, Homo sapiens, UniProt P11802): remaining activity read 93.9%.
DYRK3 (Homo sapiens, UniProt O43781) — remaining activity: 71.5%.
Cyclin-dependent kinase 6, with cyclin D3 (CDK6, Homo sapiens, UniProt Q00534) — remaining activity: 95.8%.
It gave 88.7% for remaining activity (TSSK2 (Homo sapiens, UniProt Q96PF2)).
The remaining activity was 95.7% (ABL1 (Homo sapiens, UniProt P00519)).
The remaining activity was 94.6% (STK17A (Homo sapiens, UniProt Q9UEE5)).
It gave 91.3% for remaining activity (PHKG1 (Homo sapiens, UniProt Q16816)).
The remaining activity was 104% (MAPKAPK3 (Homo sapiens, UniProt Q16644)).
The remaining activity was 93.8% (Cyclin-dependent kinase 1, with cyclin B (CDK1, Homo sapiens, UniProt P06493)).
HIPK2 (Homo sapiens, UniProt Q9H2X6) — remaining activity: 101%.

Set 3
Target: PABPC1L2, full length, GST fusion (mouse, UniProt A0ABA7IW68)
Technique: RNAcompete
Molecule type: RNA
Matrix: in vitro
Concentration: 20 nM
Notes: 7-mer, probes averaged, single round
Relative to: mean of 7-mers
Direction: higher = stronger binding
Residues (chain): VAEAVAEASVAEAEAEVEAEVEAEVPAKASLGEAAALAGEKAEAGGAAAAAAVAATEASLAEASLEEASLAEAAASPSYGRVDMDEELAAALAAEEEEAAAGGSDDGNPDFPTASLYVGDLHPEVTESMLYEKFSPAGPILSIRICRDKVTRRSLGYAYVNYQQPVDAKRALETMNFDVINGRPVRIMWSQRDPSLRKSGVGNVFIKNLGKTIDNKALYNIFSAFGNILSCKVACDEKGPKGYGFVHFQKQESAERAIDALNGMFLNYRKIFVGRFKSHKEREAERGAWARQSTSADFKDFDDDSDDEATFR
For `AGAUGCU`, the 7-mer Z-score was -0.304.
The 7-mer Z-score of `CAGCGCG` is reported as -0.213.
For `AUCGUCC`, the 7-mer Z-score was -0.267.
`GCCGGCU` has a 7-mer Z-score of -0.219.
`UACUAAA` gave a 7-mer Z-score of 0.878.
For `GACUAGU`, the 7-mer Z-score was -0.182.
For `CAAUGCA`, the 7-mer Z-score was -0.0428.
`AUUAUGG` has a 7-mer Z-score of 0.0569.

Set 4
Target: RNA binding protein fox-1 homolog 2, RRM domain, GST-SBP tag (RBFOX2, Homo sapiens, UniProt O43251-10, residues 100-194)
Technique: RNA Bind-n-Seq
Molecule type: RNA
Matrix: in vitro
Concentration: 365 nM
Notes: natural RNA segment, single round, ends assumed
Relative to: no-protein control
Direction: higher = stronger binding
Constant ends, left off below: GGGAGUUCUACAGUCCGACGAUC … UGGAAUUCUCGGGUGCCAA
Target sequence (chain): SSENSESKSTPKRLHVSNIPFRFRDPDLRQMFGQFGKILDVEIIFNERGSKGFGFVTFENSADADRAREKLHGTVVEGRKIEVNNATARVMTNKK
For `CAAGUGCAGGGGCCUCCCUACGUUCUGUACCCUAAAUCCCAAGGUCAGGUUGGGGACCAACCUUGGGCUUAUCCACCCCCCAGUCUUCCCUCCCUCUCUUGCCAGCACAU`, “RBNS enrichment (R)” read 1.6.
For `UUCCUCACUGAAACAAGUUAUUUUUGCUUCAUAUAGUCAGAGUCAGACUGACAUGAUAAAAUAUCAUGUUCCUAAUCUGUUGUCUCAGAUAAGUGACCAAGACGGGACUU`, “RBNS enrichment (R)” read 0.204.
`CUGACCUCCAUUGCUUACCUGCCUGAGUAGCCAGCUGCAUCCAUCUCUCAAAGAUACCUAGCCAGGCUCCUAACCAUGUUCUUCAACCAUUGAUUUUGUUUGAUUUCUGA`: “RBNS enrichment (R)” 4.04.
Under “RBNS enrichment (R)”, `GGCACCCUGCCUGUGAGGGCCACUUUCCUCUUCUAGUAGCUGUUGUCUGGUGGGGACGCAGUGGCCCUGGACACGGCUCCCCUCUGCAGGUCUGCAGGUCGGUUUGCUGC` is recorded as 0.773.
`AGGAAGUUUUAAUCCACUUCAGGAUGCAUAUUAGCAAGAUACUUUCAUAUACAGGAUAGCCUAAUUUUAUUUGUUUAAAUAUGCUUAAUAUGCCCAAGAUUGCAAAUGCA` — result for “RBNS enrichment (R)”: 2.56.
`CUACCCUUCCCCUUCCCCUCCCUUCCCUCUGCAAGGCUCAAGCCUGGUUUGCACUCAGUGUAGAAGAGCUCAGACGGGUGCCAGAUUAGCACUGAGCGGUAAAGGGUCUC`: “RBNS enrichment (R)” 0.837.
`UCAAGAACAAAUCAUUGGCCCGUUAUAGCAAAUAGUUGCUUAAGUAGCAGUUGUCAUAGACUAAUCAUAAAAUAUUUUGCACAAAAUUUCAAUGUUGAACUUGCACUUAC` — result for “RBNS enrichment (R)”: 0.71.
`AUUUAGGCAGAAGCAAAACAGGAAACCAUCCUUACAAACAUGCUUACCUGCACAUCUGUUUGCAUGGUCAUGUGUACAUUCAAACAUGCACAUAAAGUGAACAAGAAAGU`: “RBNS enrichment (R)” 0.398.

Repeated from above (set 2):
It gave 101% for remaining activity (EPHB4 (Homo sapiens, UniProt P54760)).
For Cyclin-dependent kinase 4, with cyclin D3 (CDK4, Homo sapiens, UniProt P11802): remaining activity read 93.9%.
DYRK3 (Homo sapiens, UniProt O43781) — remaining activity: 71.5%.
Cyclin-dependent kinase 6, with cyclin D3 (CDK6, Homo sapiens, UniProt Q00534) — remaining activity: 95.8%.
It gave 88.7% for remaining activity (TSSK2 (Homo sapiens, UniProt Q96PF2)).
